Results collected from several papers.
A part holds a random share of what one study measured. Values joined by “and” are separate records of one study, mostly repeats; a detail may differ.
Chain of UniProt P57059 (whole entry, looked up): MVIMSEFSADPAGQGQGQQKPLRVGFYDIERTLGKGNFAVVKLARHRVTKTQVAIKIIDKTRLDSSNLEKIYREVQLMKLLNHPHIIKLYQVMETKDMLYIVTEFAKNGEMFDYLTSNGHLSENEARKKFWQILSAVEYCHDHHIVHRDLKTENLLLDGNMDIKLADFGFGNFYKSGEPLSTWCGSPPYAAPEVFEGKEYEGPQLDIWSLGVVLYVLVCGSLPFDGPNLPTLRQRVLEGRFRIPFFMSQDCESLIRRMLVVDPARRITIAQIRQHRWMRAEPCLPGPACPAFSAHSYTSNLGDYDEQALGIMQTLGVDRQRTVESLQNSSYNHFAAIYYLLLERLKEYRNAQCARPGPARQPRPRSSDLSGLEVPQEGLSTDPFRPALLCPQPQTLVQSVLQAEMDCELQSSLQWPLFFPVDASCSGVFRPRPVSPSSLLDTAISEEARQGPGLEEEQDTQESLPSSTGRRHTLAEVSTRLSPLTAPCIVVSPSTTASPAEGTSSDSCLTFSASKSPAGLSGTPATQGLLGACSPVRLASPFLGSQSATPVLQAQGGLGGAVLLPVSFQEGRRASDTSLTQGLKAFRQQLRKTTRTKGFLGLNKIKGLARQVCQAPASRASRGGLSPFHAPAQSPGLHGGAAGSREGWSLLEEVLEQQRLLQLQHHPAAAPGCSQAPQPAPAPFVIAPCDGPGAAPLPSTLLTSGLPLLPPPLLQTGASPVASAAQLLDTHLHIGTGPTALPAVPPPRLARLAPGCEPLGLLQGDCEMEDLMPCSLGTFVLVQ
Chain of UniProt P08631 (whole entry, looked up): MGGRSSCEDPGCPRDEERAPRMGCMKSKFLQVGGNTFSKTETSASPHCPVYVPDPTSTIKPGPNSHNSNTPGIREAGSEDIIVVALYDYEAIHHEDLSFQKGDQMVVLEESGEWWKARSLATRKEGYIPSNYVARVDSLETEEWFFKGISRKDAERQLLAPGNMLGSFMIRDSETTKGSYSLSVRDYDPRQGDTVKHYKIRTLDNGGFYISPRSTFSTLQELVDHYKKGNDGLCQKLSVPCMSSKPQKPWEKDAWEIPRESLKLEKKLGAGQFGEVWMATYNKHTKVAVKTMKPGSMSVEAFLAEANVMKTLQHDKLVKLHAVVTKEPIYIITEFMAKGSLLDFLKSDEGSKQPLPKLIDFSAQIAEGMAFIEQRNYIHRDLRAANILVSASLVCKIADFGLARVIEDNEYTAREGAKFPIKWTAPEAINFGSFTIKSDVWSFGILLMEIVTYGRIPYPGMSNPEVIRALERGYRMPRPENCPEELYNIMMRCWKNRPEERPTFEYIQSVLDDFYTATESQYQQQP
Chain of UniProt Q86UX6 (whole entry, looked up): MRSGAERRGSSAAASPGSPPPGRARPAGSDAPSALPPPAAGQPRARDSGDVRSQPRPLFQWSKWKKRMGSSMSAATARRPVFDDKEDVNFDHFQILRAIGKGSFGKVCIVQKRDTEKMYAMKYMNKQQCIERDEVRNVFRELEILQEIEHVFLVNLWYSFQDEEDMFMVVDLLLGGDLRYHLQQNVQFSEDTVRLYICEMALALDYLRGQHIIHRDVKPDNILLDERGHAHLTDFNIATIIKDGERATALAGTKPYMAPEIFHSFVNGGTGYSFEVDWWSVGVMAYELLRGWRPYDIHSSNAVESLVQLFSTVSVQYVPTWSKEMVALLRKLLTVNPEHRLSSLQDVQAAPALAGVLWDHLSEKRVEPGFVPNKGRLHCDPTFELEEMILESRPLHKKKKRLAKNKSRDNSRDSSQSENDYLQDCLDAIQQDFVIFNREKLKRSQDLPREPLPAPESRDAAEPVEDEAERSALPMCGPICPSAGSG

Block 1
Target: Serine/threonine-protein kinase 24 (STK24, Homo sapiens, UniProt Q9Y6E0)
Chain of UniProt Q9Y6E0 (whole entry, looked up): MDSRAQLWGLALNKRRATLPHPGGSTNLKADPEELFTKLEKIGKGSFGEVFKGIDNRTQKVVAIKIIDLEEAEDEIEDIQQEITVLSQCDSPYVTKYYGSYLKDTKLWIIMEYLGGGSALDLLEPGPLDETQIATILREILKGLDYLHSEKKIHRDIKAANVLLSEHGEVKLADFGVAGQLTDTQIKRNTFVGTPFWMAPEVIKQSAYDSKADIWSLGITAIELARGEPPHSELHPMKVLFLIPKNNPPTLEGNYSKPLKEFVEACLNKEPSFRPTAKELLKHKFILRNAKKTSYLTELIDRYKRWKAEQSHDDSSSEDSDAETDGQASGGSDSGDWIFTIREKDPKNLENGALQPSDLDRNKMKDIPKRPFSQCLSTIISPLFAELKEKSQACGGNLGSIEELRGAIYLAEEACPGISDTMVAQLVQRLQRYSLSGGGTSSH
Effect on: enzyme activity
Action: inhibitor
Concentration: 0.5 µM
Baseline: control
Quantity: remaining activity
O=C1Nc2ccccc2/C1=C\c1c(Cl)[nH]c2ccccc12: 81.5%
O=C1NC(=O)c2c1c1c3ccccc3[nH]c1n1cncc21: 48.4%
c1ccc(-c2n[nH]c3c2oc2ccccc23)cc1: 75.3%
CN1CCN(c2ccc3nc(-c4c(N)c5c(F)cccc5[nH]c4=O)[nH]c3c2)CC1: 44.5%
CCCCc1c(-c2ccc(OC)cc2)[nH]c2nccnc12: 87.3%
CN(C)S(=O)(=O)c1ccc2c(c1)/C(=C/c1cc3c([nH]1)CCCC3)C(=O)N2: 47.7%
O=C1Cc2c([nH]c3ccc(Br)cc23)-c2ccccc2N1: 84.8%
COc1ccc(COc2ccc(Cc3cnc(N)nc3N)cc2OC)cc1: 93.5%
CCCNC(=O)Nc1ccc(Oc2ncnc3cc(OC)c(OC)cc23)cc1Cl: 91.7%
O=C(c1cc2cc(O)ccc2[nH]1)c1cc2cc(O)ccc2[nH]1: 70.4%

Block 2
Cell line: mouse MPNST tumor cells
Technique: high-content nuclear imaging
Item: cell number
Concentration: 10 µM
Time: 12 h
Setting: mean of 2 replicates
Baseline: plate mean
Reading: higher = more cells
Quantity: nuclei count
CCC(C)N(C)C(=O)c1cc2ccccc2c(-c2ccccc2Cl)n1 (stereo not drawn): 1.1 z-score
CC[C@H](CO)Nc1nc(NCc2ccccc2)c2ncn(C(C)C)c2n1: 1.14 z-score
Cc1ccnc(NS(=O)(=O)c2ccc(N)cc2)n1: 4.42 z-score
CN(Cc1ccc(C(C)(C)C)cc1)Cc1cccc2ccccc12: 1.14 z-score
CCc1c2c(nc3ccc(O)cc13)-c1cc3c(c(=O)n1C2)COC(=O)[C@]3(O)CC: -2.02 z-score and 1.07 z-score
Nc1ncn(C2OC(CO)C(O)C2O)c(=O)n1 (stereo not drawn): -0.298 z-score and -1.91 z-score
Cc1cc(C(=O)NNCc2ccccc2)no1: 0.29 z-score
CC(C)NC[C@@H](O)COc1cccc2ccccc12: 3.54 z-score

Block 3
Compound: N#CC1(c2ccccn2)CCN(Cc2cc(C(=O)N3CCCC3)c(=O)n3ccccc23)CC1
Concentration: 1 µM
Quantity: remaining binding
Tyrosine-protein kinase ABL1, phosphorylated (ABL1, Homo sapiens, UniProt P00519, Y253F); cell-free assay, competition with immobilised ligand: 92%
CDK11A (Homo sapiens, UniProt Q9UQ88); cell-free assay, competition with immobilised ligand: 93%
FLT3 (Homo sapiens, UniProt P36888); cell-free assay, competition with immobilised ligand: 86%
STK10 (Homo sapiens, UniProt O94804); cell-free assay, competition with immobilised ligand: 95%
NEK6 (Homo sapiens, UniProt Q9HC98); cell-free assay, competition with immobilised ligand: 100%
EGFR (Homo sapiens, UniProt P00533, del747-750/T751S); cell-free assay, competition with immobilised ligand: 77%
MAPKAPK5 (Homo sapiens, UniProt Q8IW41); cell-free assay, competition with immobilised ligand: 100%
PIK3CA (Homo sapiens, UniProt P42336, Q546K); cell-free assay, competition with immobilised ligand: 94%
DSTYK (Homo sapiens, UniProt Q6XUX3); cell-free assay, competition with immobilised ligand: 80%
MAP2K6 (Homo sapiens, UniProt P52564); cell-free assay, competition with immobilised ligand: 98%
IKBKE (Homo sapiens, UniProt Q14164); cell-free assay, competition with immobilised ligand: 94%
HCK (Homo sapiens, UniProt P08631); cell-free assay, competition with immobilised ligand: 100%
MYLK4 (Homo sapiens, UniProt Q86YV6); cell-free assay, competition with immobilised ligand: 95%
CAMK1 (Homo sapiens, UniProt Q14012); cell-free assay, competition with immobilised ligand: 100%
CDK14 (Homo sapiens, UniProt O94921); cell-free assay, competition with immobilised ligand: 100%
PIK3C3 (Homo sapiens, UniProt Q8NEB9); cell-free assay, competition with immobilised ligand: 89%
SGK2 (Homo sapiens, UniProt Q9HBY8); cell-free assay, competition with immobilised ligand: 100%
KIT (Homo sapiens, UniProt P10721, D816H); cell-free assay, competition with immobilised ligand: 100%
WEE2 (Homo sapiens, UniProt P0C1S8); cell-free assay, competition with immobilised ligand: 91%
STK32C (Homo sapiens, UniProt Q86UX6); cell-free assay, competition with immobilised ligand: 100%
MET (Homo sapiens, UniProt P08581, M1250T); cell-free assay, competition with immobilised ligand: 80%
DDR2 (Homo sapiens, UniProt Q16832); cell-free assay, competition with immobilised ligand: 100%
SIK1 (Homo sapiens, UniProt P57059); competition binding: 100%
CAMK2B (Homo sapiens, UniProt Q13554); cell-free assay, competition with immobilised ligand: 89%
CLK2 (Homo sapiens, UniProt P49760); cell-free assay, competition with immobilised ligand: 100%

Block 4
Target: DNA polymerase theta, ATPase domain (POLQ, Homo sapiens, UniProt O75417)
Chain of UniProt O75417 (whole entry, unmodified, looked up): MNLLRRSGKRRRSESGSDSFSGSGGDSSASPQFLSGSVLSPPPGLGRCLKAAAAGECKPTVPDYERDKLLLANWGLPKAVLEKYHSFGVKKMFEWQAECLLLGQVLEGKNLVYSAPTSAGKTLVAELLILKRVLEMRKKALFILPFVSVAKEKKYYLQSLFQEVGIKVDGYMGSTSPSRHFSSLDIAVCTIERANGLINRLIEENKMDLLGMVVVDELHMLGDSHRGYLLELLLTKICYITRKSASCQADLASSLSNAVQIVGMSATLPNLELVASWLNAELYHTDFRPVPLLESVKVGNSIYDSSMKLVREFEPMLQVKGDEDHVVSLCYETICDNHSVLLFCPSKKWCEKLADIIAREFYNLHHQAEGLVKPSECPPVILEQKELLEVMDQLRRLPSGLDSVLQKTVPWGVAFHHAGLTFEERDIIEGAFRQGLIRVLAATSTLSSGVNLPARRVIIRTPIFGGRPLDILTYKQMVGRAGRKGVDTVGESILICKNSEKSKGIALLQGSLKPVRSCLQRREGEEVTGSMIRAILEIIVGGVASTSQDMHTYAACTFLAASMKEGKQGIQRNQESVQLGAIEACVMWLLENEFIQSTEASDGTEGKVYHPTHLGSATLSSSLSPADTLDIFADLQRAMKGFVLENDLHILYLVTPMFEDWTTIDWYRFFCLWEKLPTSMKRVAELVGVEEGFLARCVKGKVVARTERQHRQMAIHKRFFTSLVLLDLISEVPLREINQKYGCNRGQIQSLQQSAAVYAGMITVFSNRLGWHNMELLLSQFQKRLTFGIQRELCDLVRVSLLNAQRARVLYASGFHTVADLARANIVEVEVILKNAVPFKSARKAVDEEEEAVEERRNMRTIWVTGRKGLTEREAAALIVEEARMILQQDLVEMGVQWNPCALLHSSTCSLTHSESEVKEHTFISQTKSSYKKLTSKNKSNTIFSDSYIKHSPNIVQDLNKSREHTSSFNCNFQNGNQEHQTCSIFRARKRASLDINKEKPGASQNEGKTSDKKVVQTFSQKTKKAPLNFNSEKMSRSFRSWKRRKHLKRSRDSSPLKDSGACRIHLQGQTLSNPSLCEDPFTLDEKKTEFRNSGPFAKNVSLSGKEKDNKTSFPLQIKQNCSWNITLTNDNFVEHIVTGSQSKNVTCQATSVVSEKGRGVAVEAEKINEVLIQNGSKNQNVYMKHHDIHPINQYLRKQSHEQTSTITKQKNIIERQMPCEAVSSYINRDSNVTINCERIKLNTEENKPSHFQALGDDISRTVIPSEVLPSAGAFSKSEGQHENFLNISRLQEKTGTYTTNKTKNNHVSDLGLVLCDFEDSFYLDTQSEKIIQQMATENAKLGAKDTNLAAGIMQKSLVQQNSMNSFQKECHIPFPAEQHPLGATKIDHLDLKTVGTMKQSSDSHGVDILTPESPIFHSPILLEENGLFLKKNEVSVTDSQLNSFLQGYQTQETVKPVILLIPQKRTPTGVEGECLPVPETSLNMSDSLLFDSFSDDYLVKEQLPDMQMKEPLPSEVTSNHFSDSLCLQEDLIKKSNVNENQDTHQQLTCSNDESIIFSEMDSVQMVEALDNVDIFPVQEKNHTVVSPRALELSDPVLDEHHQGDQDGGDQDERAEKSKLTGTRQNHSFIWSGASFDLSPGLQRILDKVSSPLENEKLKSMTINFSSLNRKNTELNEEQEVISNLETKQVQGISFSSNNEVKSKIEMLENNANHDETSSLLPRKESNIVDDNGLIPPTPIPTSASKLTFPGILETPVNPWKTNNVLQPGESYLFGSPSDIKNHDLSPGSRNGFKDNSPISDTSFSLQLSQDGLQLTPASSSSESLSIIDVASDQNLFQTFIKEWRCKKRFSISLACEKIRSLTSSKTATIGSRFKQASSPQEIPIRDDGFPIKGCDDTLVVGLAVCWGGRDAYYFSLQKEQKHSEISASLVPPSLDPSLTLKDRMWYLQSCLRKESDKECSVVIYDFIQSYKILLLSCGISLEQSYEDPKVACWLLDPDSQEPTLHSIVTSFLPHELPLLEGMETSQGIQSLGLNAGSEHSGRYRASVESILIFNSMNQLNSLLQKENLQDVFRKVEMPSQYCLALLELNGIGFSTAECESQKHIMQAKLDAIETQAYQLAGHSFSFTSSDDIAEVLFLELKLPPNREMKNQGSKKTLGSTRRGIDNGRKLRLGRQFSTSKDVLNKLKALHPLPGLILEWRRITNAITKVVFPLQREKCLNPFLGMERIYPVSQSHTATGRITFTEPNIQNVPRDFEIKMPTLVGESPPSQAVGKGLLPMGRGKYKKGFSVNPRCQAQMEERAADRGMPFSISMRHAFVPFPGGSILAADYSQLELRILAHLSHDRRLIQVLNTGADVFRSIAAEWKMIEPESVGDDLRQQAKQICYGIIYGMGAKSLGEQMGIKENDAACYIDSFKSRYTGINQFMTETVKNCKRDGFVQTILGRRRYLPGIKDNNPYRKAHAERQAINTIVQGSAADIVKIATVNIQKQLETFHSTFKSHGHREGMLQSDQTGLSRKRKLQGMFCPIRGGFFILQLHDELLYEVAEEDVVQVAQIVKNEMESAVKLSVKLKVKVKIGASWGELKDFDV
Effect on: enzyme activity
Action: inhibitor
Concentration: 77 µM
Baseline: untreated
Quantity: remaining activity
Cc1nnc(C(C)C)n1[C@@H]1C[C@H]2CC[C@@H](C1)N2CC[C@H](NC(=O)C1CCC(F)(F)CC1)c1ccccc1: 71.4%
COc1ccc(S(=O)(=O)N(CCO)c2ccccc2CN(C)C/C=C/c2ccc(Cl)cc2)cc1: 100%
Cn1ccnc1: 96.4%
CCN(CC)C(=O)c1ccc(Nc2nc(OCC3CCCCC3)c3[nH]cnc3n2)cc1: 113%
Cc1ccc(-c2c(-c3nn(C)c4ncnc(N5CC[C@H](N6CCCCC6)C5)c34)cnn2C)cc1: 102%
NC[C@H]1CC[C@H](C(=O)O)CC1: 105%
CC(=O)NNC(=O)N1Cc2ccccc2Oc2ccc(Cl)cc21: 101%
CN1CCCN(C(=O)c2cccc(-c3ccc(/C=C4/C(=O)Nc5ccc(Cl)cc54)o3)c2)CC1: 72.7%
